Measurements gathered from unrelated publications.
Parts stem from different laboratories: compare values within a part only.

Sample 1 — read-out: enzyme activity; mode: inhibitor; tested at: 20 µM; endpoint: inhibition
Target: Replicase polyprotein 1ab, polymerase (rep, Severe acute respiratory syndrome coronavirus 2, UniProt P0DTD1)
SMILES = CCCc1cc(C)[nH]c(=O)c1CNC(=O)c1cc(-c2ccc(N3CCN(C(C)C)CC3)nc2)cc2c1cnn2C(C)C; value = -2.9%
SMILES = CCCNC(C)C(=O)Nc1ccccc1C (centres unmarked); value = 1.93%
SMILES = COC(=O)[C@@H]1CC2=CC(=O)CC[C@]2(C)[C@@]23O[C@@H]2C[C@@]2(C)[C@@H](CC[C@@]24CCC(=O)O4)[C@H]13; value = 0.18%
SMILES = COC(=O)/C=C/C(=O)N[C@@H]1CC[C@@]2(O)[C@H]3Cc4ccc(O)c5c4[C@@]2(CCN3CC2CC2)[C@H]1O5; value = -5.18%
SMILES = N/C(=N\C(=O)c1nc(Cl)c(N)nc1N)NCc1ccccc1; value = -2.08%
SMILES = CCOC(=O)OC(C)OC1=C(C(=O)Nc2ccccn2)N(C)S(=O)(=O)c2ccccc21 (centres unmarked); value = -2.27%
SMILES = CCC/N=C1\S/C(=C\c2ccc(OC[C@H](O)CO)c(Cl)c2)C(=O)N1c1ccccc1C; value = 1.26%
SMILES = CCCCCCCCCCCCCCCCOc1nc2ccc(C)cc2c(=O)o1; value = -1.88%
SMILES = CCOC(=O)c1c(C)n(C)c2ccc(O)cc12; value = -0.66%
SMILES = COc1ccc(S(=O)(=O)Nc2c(C)cc(C)cc2C)cc1; value = -2.89%
SMILES = c1ccc(OCc2ccc(CCCN3CCOCC3)cc2)cc1; value = -13.1%
SMILES = c1coc(-c2nnc3sc(C4CCCCC4)nn23)c1; value = -8.9%
SMILES = O=C1NC(=S)NC(=O)C1C(=O)Nc1ccccc1; value = 4.53%
SMILES = COc1ccc2[nH]cc(CCNC(C)=O)c2c1; value = -2.79%
SMILES = COC1=C2C[C@@H](C)C[C@H](OC)[C@H](O)[C@@H](C)/C=C(\C)[C@H](OC(N)=O)[C@@H](OC)/C=C\C=C(/C)C(=O)NC(=CC1=O)C2=O; value = -6.28%
SMILES = C=CC[C@]1(O)CC[C@H]2[C@@H]3CCC4=CC(=O)CCC4=C3C=C[C@@]21C; value = -5.59%
SMILES = O=C(Nc1ccccc1)Nc1ccc(-c2ccc(C(=O)[C@@H]3CCC[C@H]3C(=O)O)cc2)cc1; value = 11.2%
SMILES = O=[N+]([O-])c1ccc(O)c2ncccc12; value = 5.98%
SMILES = CCOc1ccc2ccccc2c1C(=O)N[C@@H]1C(=O)N2[C@@H]1SC(C)(C)[C@@H]2C(=O)O; value = 21.4%
SMILES = S=C(S)O[C@@H]1C[C@@H]2C[C@@H]1[C@H]1CCC[C@@H]21; value = -9.36%
SMILES = COc1ccc(S(=O)(=O)N2c3ccc(Cl)cc3[C@](O)(c3ccccc3Cl)[C@@H]2C(=O)N2CCC[C@H]2C(N)=O)cc1OC; value = 3.8%
SMILES = CS(=O)(=O)Nc1ccc(-c2coc3cc(OCc4cccc(C(=O)O)c4)ccc3c2=O)cc1; value = 3%
SMILES = CCC(=O)O[C@@H]1CC(=O)O[C@H](C)C/C=C/C=C/[C@H](O)[C@H](C)C[C@H](CC=O)[C@H](O[C@@H]2O[C@H](C)[C@@H](O[C@H]3C[C@@](C)(O)[C@@H](OC(=O)CC)[C@H](C)O3)[C@H](N(C)C)[C@H]2O)[C@H]1OC; value = 0.03%
SMILES = Nc1ccncc1N; value = -3.48%
SMILES = COc1cc(OC2CCN(C)CC2)ccc1Nc1ncc2c(n1)n(C1CCCC1)c(=O)n2C; value = 3.67%

Sample 2 — method: universal PBM; form: double-stranded DNA, one strand shown; medium: in vitro; tested at: 600 nM; reading: higher = stronger binding; endpoint: E-score
Target: Sal-like protein 4, full length isoform A (SALL4, Homo sapiens, UniProt Q9UJQ4, residues 1-1053)
Sequence of UniProt Q9UJQ4 (whole entry, looked up): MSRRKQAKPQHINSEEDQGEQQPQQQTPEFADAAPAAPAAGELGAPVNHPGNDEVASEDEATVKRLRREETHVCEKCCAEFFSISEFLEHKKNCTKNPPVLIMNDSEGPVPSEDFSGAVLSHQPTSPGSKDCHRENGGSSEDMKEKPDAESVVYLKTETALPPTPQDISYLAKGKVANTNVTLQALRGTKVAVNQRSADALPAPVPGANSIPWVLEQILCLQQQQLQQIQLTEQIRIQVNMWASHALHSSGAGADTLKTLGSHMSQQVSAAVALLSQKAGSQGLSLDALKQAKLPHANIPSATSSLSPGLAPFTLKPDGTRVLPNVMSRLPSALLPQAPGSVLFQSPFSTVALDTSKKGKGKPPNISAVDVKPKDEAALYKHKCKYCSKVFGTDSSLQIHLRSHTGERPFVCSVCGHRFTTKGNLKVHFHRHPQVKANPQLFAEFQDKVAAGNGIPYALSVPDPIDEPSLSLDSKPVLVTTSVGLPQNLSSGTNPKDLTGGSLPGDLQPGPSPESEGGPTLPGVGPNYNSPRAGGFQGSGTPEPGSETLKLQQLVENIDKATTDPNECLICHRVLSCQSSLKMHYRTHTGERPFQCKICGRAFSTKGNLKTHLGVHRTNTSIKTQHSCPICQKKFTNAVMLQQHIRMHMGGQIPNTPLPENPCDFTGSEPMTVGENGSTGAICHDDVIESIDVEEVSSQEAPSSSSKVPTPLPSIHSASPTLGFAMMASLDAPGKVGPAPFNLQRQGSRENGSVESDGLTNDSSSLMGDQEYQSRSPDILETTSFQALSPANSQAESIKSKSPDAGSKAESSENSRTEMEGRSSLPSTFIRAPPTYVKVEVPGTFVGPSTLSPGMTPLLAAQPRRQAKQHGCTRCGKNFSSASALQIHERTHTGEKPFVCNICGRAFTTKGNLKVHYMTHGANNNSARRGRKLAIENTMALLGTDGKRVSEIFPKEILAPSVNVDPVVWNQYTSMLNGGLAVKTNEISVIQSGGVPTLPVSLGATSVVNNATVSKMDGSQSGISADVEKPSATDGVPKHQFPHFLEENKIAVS
Notes: 8-mer, flanks averaged, mean of replicates
Oligonucleotide = CTAGATAC; value = 0.17
Oligonucleotide = GAGCAGAC; value = -0.062
Oligonucleotide = CGGATGGC; value = -0.192
Oligonucleotide = CCAAAGCG; value = -0.233
Oligonucleotide = GCAAATGA; value = 0.0994
Oligonucleotide = ATGAGGAG; value = 0.0566
Oligonucleotide = CTCAACTA; value = 0.00239
Oligonucleotide = GTTAGGAA; value = 0.0138

Sample 3 — method: RNA Bind-n-Seq; form: RNA; medium: in vitro; tested at: 365 nM; relative to: no-protein control; reading: higher = stronger binding; endpoint: RBNS enrichment (R)
Target: RNA binding protein fox-1 homolog 2, RRM domain, GST-SBP tag (RBFOX2, Homo sapiens, UniProt O43251-10, residues 100-194)
Notes: natural RNA segment, single round, ends assumed
Target sequence (chain): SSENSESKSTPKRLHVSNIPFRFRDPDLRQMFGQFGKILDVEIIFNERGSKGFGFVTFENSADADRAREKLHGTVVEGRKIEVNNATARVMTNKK
Oligonucleotide = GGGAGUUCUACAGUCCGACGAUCCUUAGAGGAACUGUAAAUCUAUUGCCCAGUCAUAACAUUUUGAGCUGCAUUUAAGUAGACUAUGGACCGUUAAGCUGGGCAAAUGAAAUGACAAGGGGACGGGGUCUGUGUGGAAUUCUCGGGUGCCAA; value = 0.618
Oligonucleotide = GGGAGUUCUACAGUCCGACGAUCAAAACAUGUAAAAUAUUGAAGUGUCUAACAAAUGGCAUAAAGUGUCUUUAAUAAAGGUUCAUUUAUAAUACUAAGUGUGUGCGGCGGUCACUGCUCUUUUAUUCUGCUAUUGGAAUUCUCGGGUGCCAA; value = 0.347
Oligonucleotide = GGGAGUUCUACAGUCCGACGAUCUACCCGAUGUUUACAGAUGCUGUUGGGAAGUUAUCAAUAAAAAGACACCAUUACUAAAAAGGGAAAAGUACACCUAGCUGUGGCUUCUUCAGUCCUUAAGCCAAGCAACCUGGAAUUCUCGGGUGCCAA; value = 0.718
Oligonucleotide = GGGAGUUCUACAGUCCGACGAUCCCUCAGGUGAUCUGCCCACCUCAGCCUCCCGAAGUGCUGGGAUUACAGGUGUGAGCCACCGCACCCGGCUCUAUUUAGCUUUUUAAAAAUUAUUUCCUUUCAAGGGCCCUUGGAAUUCUCGGGUGCCAA; value = 0.461
Oligonucleotide = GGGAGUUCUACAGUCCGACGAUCAAACACCCUUUAGUCUGUCAGUUGAAUUCAGAGCACUGAAAGGUGUUAAAUUGGGGUAUGUGGUUUGAUUGAUAAAAAGUUACCUCUCAGUAUUUUGUGUCACUGAGAAGUGGAAUUCUCGGGUGCCAA; value = 1.99
Oligonucleotide = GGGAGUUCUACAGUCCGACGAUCAGUACUGUGCUAUAUGUAGCCGCCUUUACAGAUGUUAUUAACCUAUAGUAGUUUACUAUUAACUAGGAAGACUGGUGUAUGAGGAGGGAGACAUUCUGUAAUAAGAUUAAUGGAAUUCUCGGGUGCCAA; value = 0.386
Oligonucleotide = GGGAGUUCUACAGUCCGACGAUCAUUCACCAGUUGAUAGACAUGUAGAUUGUUUUCAUGCUGCUGUGACCAUUUGUGUACAAGUGUUUGUGCAGACAUAUGUUUAACUUUUUAGGAAAUUGCCAGACUGUUUUUGGAAUUCUCGGGUGCCAA; value = 0.372
Oligonucleotide = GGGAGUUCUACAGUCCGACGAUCUUUGUAGAUAUGGAGAUGAAGAAGACAAAUCUUUAUUAUAAUAUUGAUCAGUUUUAUGCCGCAUUGUUCGUGGCAGUAGACCACAUCUGUUCGUCUGCACAGCUGUGAGGUGGAAUUCUCGGGUGCCAA; value = 0.526

Sample 4 — method: protein binding microarray; form: double-stranded DNA, one strand shown; medium: in vitro; tested at: not given; relative to: not given; reading: higher = stronger binding; endpoint: E-score
Target: Histone acetyltransferase KAT6A, both winged helices, GST fusion (KAT6A, Homo sapiens, UniProt Q92794, residues 1-181)
Notes: 8-mer, flanks averaged, mean of 2 arrays, mostly near background
Residues (chain): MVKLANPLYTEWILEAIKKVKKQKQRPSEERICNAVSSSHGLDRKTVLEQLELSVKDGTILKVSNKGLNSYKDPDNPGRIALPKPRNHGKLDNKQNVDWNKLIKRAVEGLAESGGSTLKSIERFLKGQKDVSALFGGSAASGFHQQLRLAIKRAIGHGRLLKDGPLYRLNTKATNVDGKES
Oligonucleotide = CTAGGGAA; value = -0.131
Oligonucleotide = AATTGCGC; value = 0.317
Oligonucleotide = ATATTAGG; value = -0.194
Oligonucleotide = CTTGAGCC; value = -0.162
Oligonucleotide = GCAGGTTA; value = -0.0897
Oligonucleotide = AGTTATAT; value = -0.0874
Oligonucleotide = CATAAAAC; value = 0.057
Oligonucleotide = AGTCCCTG; value = -0.16

Sample 5 — method: protein-binding microarray; form: double-stranded DNA, one strand shown; medium: in vitro; tested at: 250 nM; notes: 60-bp whole probe; with: salmon DNA 0.4 mg/ml; relative to: random background probes; reading: higher = stronger binding; endpoint: log fluorescence; constant ends, left off below: GCCTAGCAC … GTCTTGATTCGCTTGACGCTGCTG
Target: Interferon regulatory factor 7, full length, phosphomimetic (IRF7, Homo sapiens, UniProt Q92985, residues 1-503, S101K/S471D/S472D/S475D/S476D/S477D/S483D/S484D/S487D)
Construct (chain): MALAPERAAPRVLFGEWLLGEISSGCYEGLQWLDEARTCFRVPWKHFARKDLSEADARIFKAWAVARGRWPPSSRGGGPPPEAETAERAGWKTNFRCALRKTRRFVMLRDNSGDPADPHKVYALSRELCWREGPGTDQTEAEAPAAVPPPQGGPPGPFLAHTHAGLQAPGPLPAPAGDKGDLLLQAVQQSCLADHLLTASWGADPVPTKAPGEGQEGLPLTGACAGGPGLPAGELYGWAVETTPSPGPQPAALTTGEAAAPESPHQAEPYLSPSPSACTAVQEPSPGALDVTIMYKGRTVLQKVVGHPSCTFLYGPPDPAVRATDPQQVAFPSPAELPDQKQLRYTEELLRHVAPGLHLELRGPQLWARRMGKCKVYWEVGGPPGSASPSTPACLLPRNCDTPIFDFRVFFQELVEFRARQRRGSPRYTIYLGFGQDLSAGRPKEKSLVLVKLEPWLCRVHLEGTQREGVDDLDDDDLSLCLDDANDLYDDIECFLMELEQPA
Oligonucleotide = TTAGGATTCGACACTGGGTTAGTGCTA; value = 0.0845 z-score
Oligonucleotide = GGTCCCACCTCTTGGTGGGAGTGCTAG; value = 0.958 z-score
Oligonucleotide = GTAGAACTGGGGACTGGATTAGTGCTA; value = -0.495 z-score
Oligonucleotide = TTAGATATCAGTTTCGTTTAGTGCTAG; value = 9.16 z-score
Oligonucleotide = GACGGTCTCGGACTGGGGACGTGCTAG; value = 0.247 z-score
Oligonucleotide = TCATTTTTTTTCATCATACTGTGCTAG; value = 1 z-score

Further values, each from its own experiment
SMILES = O=c1[nH]c2ccccc2n1C1CCN(CCCC(c2ccc(F)cc2)c2ccc(F)cc2)CC1; cell line = HEK-293T; test = pseudovirus infection, FDA-approved drug library screen; system = VSV pseudotyped with SARS-CoV-2 spike; conditions = 10 µM, 16 h; how to read = relative to: vehicle-treated; endpoint = GFP-positive cells; value = 33.7%

Excerpt of the above (sample 1):
SMILES = CCOC(=O)OC(C)OC1=C(C(=O)Nc2ccccn2)N(C)S(=O)(=O)c2ccccc21 (centres unmarked); value = -2.27%
SMILES = COc1cc(OC2CCN(C)CC2)ccc1Nc1ncc2c(n1)n(C1CCCC1)c(=O)n2C; value = 3.67%
SMILES = S=C(S)O[C@@H]1C[C@@H]2C[C@@H]1[C@H]1CCC[C@@H]21; value = -9.36%
SMILES = COc1ccc2[nH]cc(CCNC(C)=O)c2c1; value = -2.79%
